Assay results of several laboratories.
Each numbered part is a random draw from the data of one study; scales do not carry over between parts. Changes are numbered by the printed parent chain.

Study 1 — technique: protein binding microarray; molecule type: double-stranded DNA, one strand shown; medium: in vitro; concentration: not given; relative to: not given; direction: higher = stronger binding
Target: Histone acetyltransferase KAT6A, both winged helices, GST fusion (KAT6A, Homo sapiens, UniProt Q92794, residues 1-181)
Notes: 8-mer, flanks averaged, mean of 2 arrays, mostly near background
Target sequence (chain): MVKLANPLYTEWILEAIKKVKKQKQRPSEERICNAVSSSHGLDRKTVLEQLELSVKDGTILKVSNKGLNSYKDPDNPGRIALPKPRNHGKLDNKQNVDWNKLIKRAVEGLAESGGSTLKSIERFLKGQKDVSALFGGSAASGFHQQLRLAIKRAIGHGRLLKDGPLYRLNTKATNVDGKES
Strand	E-score
CAGCCCTA	-0.0354
CCTCATTC	-0.138
GTGGGGCA	-0.13
GGTGGGTA	-0.0734
CCAATAGA	-0.16
CACCTCAG	-0.169
ACTTTGCG	0.0982
GAGGAGGC	-0.0585
GAGCCGCA	0.185
AAAAGCGA	0.165
AAATGCTC	-0.0859
ACATTAGT	-0.158
ACATGGCT	-0.166
ATGGGTCC	-0.0626
GTTTTGCA	-0.168
ACCGTACT	0.144
CGTATTAA	0.0406
ACGGTACT	0.183
ATCTCTCG	-0.0561
GCCATTCA	0.00432
CCTCCCCC	-0.0903
CCATACAA	-0.221
AGACTCCG	0.0871
CAAAGGAG	-0.221
AAATTTAG	-0.0639

Study 2 — technique: RNAcompete; molecule type: RNA; medium: in vitro; concentration: 20 nM; notes: 7-mer, probes averaged, single round; relative to: mean of 7-mers; direction: higher = stronger binding
Target: PABPC1L2, full length, GST fusion (mouse, UniProt A0ABA7IW68)
Residues (chain): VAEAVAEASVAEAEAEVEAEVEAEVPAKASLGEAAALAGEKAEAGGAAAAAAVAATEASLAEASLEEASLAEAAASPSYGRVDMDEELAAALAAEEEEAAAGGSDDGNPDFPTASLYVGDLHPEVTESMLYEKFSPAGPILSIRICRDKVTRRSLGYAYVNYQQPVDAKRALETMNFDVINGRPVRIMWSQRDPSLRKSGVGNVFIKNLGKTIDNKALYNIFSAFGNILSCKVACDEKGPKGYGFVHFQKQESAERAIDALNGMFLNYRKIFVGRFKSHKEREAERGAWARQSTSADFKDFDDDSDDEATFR
Strand	7-mer Z-score
GAAAGUG	0.702
ACACGUG	-0.0609
AAGAGCU	0.613
ACGCACU	-0.0101
UAUAUAG	-0.05
AGCUUUA	-0.144
UGGAGCC	-0.26
AAACAUU	2.94
GGUAGCC	-0.11
CUUAAAU	0.331
GCUACUU	-0.2
GCUAGAU	-0.0663
UGACUGU	-0.306
GCGCUCG	-0.141
GACACCC	-0.327
AUUGGUA	0.0225
UGAGAAA	0.852
GUUCGAU	-0.373
CCGAAUC	-0.271

Study 3 — target: CCNA1, cyclin fold, Cln2 fusion (human); technique: yeast growth competition, sequencing; medium: yeast; notes: weak parent motif; relative to: not given; direction: higher = stronger binding
Starting sequence: MICAL3 docking peptide (human); LQLRRQLSFSEDS
Variant	normalised enrichment score
L3W	-0.135
Q2N	0.285
R5Y	0.494
L7M	0.39
E11W	0.167
S10K	0.209
S10T	0.536
Q6L	0.0872
R5T	0.356
R4I	0.331
E11K	0.441
S8I	0.607
R4V	-0.0689
L3D	0.154
E11S	0.184
Q6Y	0.171
S8G	0.293
F9L	-0.0573
R5V	0.387
S8Q	0.78
L3C	1.49

Study 4 — technique: DHFR PCA, deep sequencing; medium: yeast; added: (+)-ABA 0.11 µM; relative to: wild-type fitted maximum; direction: higher = stronger binding
Target: ABI1, truncated, D143A, DHFR fusion (Arabidopsis thaliana)
Notes: methotrexate growth selection, single substitutions
Starting sequence: PYL1, truncated, DHFR fusion (Arabidopsis thaliana); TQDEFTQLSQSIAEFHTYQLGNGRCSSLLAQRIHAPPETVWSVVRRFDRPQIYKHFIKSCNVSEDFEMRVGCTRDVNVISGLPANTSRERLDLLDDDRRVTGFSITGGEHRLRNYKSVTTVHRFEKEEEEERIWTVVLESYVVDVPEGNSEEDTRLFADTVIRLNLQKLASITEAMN
Variant	relative binding score
L82K	3.56%
D144V	-4.08%
P50Q	-10.3%
I12V	12.5%
K58I	-2.65%
E127H	43.1%
N77G	18.7%
P37S	0.697%
F56W	3.68%
N77K	57.9%
D65H	20%
E109F	2.13%
N165V	3.1%
R74L	0.115%
S117D	-3.63%
N114L	-4.32%

Study 5 — technique: RNA Bind-n-Seq; molecule type: RNA; medium: in vitro; concentration: 365 nM; relative to: no-protein control; direction: higher = stronger binding
Target: RNA binding protein fox-1 homolog 2, RRM domain, GST-SBP tag (RBFOX2, Homo sapiens, UniProt O43251-10, residues 100-194)
Notes: natural RNA segment, single round, ends assumed
All sequences stand within: GGGAGUUCUACAGUCCGACGAUC … UGGAAUUCUCGGGUGCCAA
Residues (chain): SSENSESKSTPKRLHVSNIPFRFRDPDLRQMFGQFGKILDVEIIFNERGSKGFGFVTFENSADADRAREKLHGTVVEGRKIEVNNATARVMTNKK
Strand	RBNS enrichment (R)
GGAGGAUAAGAGUGUUCUUUCUUGAAAGCCGGGACUUCCCCUCAAGAACCUGGGCCUGGGGCCGGGACUCUGCAUGACUGGGAGCAAGUCACUUAAACCUCCUGUGCCUC	11.8
ACAAAAAAAUGCUACUCCUAGUUCAGAUGUUGUGCCCUUCAUUUCUAAAGCCGAUGUUUUGCCCUCUUUGGAAAGACUGAGAACUGUGGCCUGAUUUCGUCCAUAUUCUA	0.442
UGGGAUGGAGAACCACUCUGUCCAGAUCUGGGGUUGGGUCAUGACACCAGCUACCAAUUUUAGAAUAUUAUUUCUUGGUUUCUUUAUGAAAAAUGGGUGCUAGUGGUAAU	0.343
GGCACAUUCCUGUACCCUUUAAAUGGGAAAGCAGUUAACGGAAGGGCCACAGGGUCAGAUGAGGGCUGCCUUUCGCUGCUGUGAACACUUACAGUACACCUGACUUGGAA	0.73
GGCCUGUGAGCUGUUUUAAAUUAAUUUUUAUAUAUGGUAUGAGGUAAAGAUCUAAAUUCCUAUGGAUAUUCAGUGGUCUUAGCACCAUGUGUUAAAAGGACUGCUUUUCC	0.893
GGGCUGUCCAGAGCUGCAGCAGGGCUUUGCACGGAAGGGGUGGCCCUGUUAGAGUUGCUUCUCCUCUAGUUUGUAACUUACUGGACUUUUGUGGAAAAUAUCAGCGUCGC	1.22
UUGAAACUCUAAUUGCAAUAACUUCAGUCUUUCUCCAUCUUCAGCUGUAUCCACAAAAUCUCCACUGCUGUCGAGUGUCCUUUAGCUGUGGACCAAAGGCAACCCCUGCA	2.28
CCAGUUGUAGUCGUUUGAGUGCAGUAAUGAAAUCUGAAUCUAAAAUAAAAACAAGAUUAUUUUUGUCAUGCUGACUCCACUGCUUGAAAAAUUUGUUUACUGCCCCCCAG	0.846
CCAUUCUUCUGACCCUCUAGAUAAGCGUAGCCUACAACCCAGUGCCGUAAGUUUCCAAGAUUCAAGAAGUGUAUCAACCCAGGCAAUAUCUCAGGAUAUGGAAGUUUCUG	0.26
UUUUCCAGUUAGUCUUCUUCAAGGAAUUACUAUUGUUCCUUUUGUCACAGGUAAAAUCAGUGUUGGGAAUUAUAAUUUGAGAAAAAUAUUACCCAGUAACAUUGAAUGUA	0.468
ACCACCACCCCACGUAGCUGCUCACACCAGCCUCCGGGUGCCUCCCUCUGCUUGUACAGAGCCCAUGGUCGGGACAGUGCCCUGGCCUUUGCCGGGGAGGAGGAUGCUCU	0.219
UCCUGCAAGGGCUAGCUGAGACUCAGUCCUGAUGAUAGGAGGUUACAGACUGCCUGCUCUAGGAUCUCUUGCUGUCUUCUCCUGGUCUCUGGCUUCUGCCUCACCUGCAA	0.518
